{"data": "Earlier results that unrelated publications cite", "note": "Each line is one published result; not all experiments were run side by side.", "UniProt Q16620, sequence (whole entry, looked up)": "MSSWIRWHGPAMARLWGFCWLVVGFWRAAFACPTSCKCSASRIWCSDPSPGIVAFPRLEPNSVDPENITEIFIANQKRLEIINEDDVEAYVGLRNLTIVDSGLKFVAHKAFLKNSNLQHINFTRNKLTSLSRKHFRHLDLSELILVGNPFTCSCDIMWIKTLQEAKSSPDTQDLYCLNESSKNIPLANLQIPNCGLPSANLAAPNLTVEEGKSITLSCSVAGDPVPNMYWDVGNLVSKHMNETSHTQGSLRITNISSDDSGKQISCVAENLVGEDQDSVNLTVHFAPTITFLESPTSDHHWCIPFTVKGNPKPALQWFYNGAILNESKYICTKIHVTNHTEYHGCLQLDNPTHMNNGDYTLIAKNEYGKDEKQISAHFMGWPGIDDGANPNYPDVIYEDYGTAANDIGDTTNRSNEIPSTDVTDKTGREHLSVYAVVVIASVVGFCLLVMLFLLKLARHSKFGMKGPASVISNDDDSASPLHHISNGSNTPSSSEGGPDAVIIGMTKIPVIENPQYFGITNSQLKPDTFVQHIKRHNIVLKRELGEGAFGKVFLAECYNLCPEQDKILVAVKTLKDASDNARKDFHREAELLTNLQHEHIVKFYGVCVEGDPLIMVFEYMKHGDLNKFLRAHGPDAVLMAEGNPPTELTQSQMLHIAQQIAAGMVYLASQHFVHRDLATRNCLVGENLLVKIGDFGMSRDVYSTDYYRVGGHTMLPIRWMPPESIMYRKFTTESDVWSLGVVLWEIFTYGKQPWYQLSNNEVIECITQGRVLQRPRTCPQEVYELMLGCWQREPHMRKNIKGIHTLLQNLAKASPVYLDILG"}
{"SMILES": "N[C@@H]1c2cccnc2[C@H](OC(=O)N2CCC(n3c(=O)[nH]c4ncccc43)CC2)CC[C@H]1c1cccc(F)c1F", "test system": "plasma", "measurement": "unbound fraction", "value": "4%"}
{"SMILES": "C=C(CC)C(=O)c1ccc(OCC(=O)O)c(Cl)c1Cl", "test system": "plasma", "setting": "concentration not given", "measurement": "unbound Cmax", "value": "600 nM"}
{"SMILES": "Nc1cc(C(F)(F)F)c(-c2nc(N3CCOCC3)nc(N3CCOCC3)n2)cn1", "target or system": "BDNF/NT-3 growth factors receptor (NTRK2, Homo sapiens, UniProt Q16620)", "test": "enzyme activity", "setting": "10 µM", "how to read": "baseline: untreated", "measurement": "remaining activity", "value": "84%"}
{"SMILES": "O=C(O)CCc1nc(-c2ccccc2)c(-c2ccccc2)o1", "test system": "plasma", "setting": "concentration not given", "measurement": "unbound Cmax", "value": "5010 nM"}
{"SMILES": "C[C@]1(c2nc3c(C(N)=O)cccc3[nH]2)CCCN1", "test system": "plasma", "measurement": "unbound fraction", "value": 0.48}
{"SMILES": "CC(O)C(C)n1ncn(-c2ccc(N3CCN(c4ccc(OCC5COC(Cn6cncn6)(c6ccc(Cl)cc6Cl)O5)cc4)CC3)cc2)c1=O (stereo not shown)", "test system": "liver microsomes", "measurement": "unbound fraction in microsomes", "value": 1}
{"SMILES": "CCCCC(=O)N(Cc1ccc(-c2ccccc2-c2nnn[nH]2)cc1)[C@H](C(=O)O)C(C)C", "test system": "plasma", "setting": "concentration not given", "measurement": "unbound Cmax", "value": "850 nM"}
{"SMILES": "C=CC(=O)N1C[C@H](Nc2ncnc3[nH]ccc23)CC[C@@H]1C", "test system": "plasma", "measurement": "unbound fraction", "value": 0.86}
{"SMILES": "CC(O)C(C)n1ncn(-c2ccc(N3CCN(c4ccc(OCC5COC(Cn6cncn6)(c6ccc(Cl)cc6Cl)O5)cc4)CC3)cc2)c1=O (stereo not shown)", "test system": "plasma", "measurement": "unbound fraction", "value": 0.0212}
{"SMILES": "O=C(NC[C@H]1CN(c2ccc(N3CCOCC3=O)cc2)C(=O)O1)c1ccc(Cl)s1", "test system": "plasma", "setting": "at Cmax, small group", "measurement": "unbound fraction in plasma", "value": "~10%"}
{"note": "Some of these lines once more:"}
{"SMILES": "C[C@]1(c2nc3c(C(N)=O)cccc3[nH]2)CCCN1", "test system": "plasma", "measurement": "unbound fraction", "value": 0.48}
